{"data": "Measured values of several laboratories", "IDE": "Insulin-degrading enzyme (IDE, Homo sapiens, UniProt P14735)", "note": "Lines come from different studies, so protocols differ. ± marks the error that the study gave."}
{"Compound": "Nc1nccc2c1ncn2[C@@H]1C=C(CO)[C@@H](O)[C@H]1O", "target or system": "HBL-1", "conditions": "0.5 µM, 120 h", "quantity": "viability", "result": "75%"}
{"Compound": "CC(=O)Nc1cccc(-n2c(=O)n(C3CC3)c(=O)c3c(Nc4ccc(I)cc4F)n(C)c(=O)c(C)c32)c1", "target or system": "NCI-H2087 (BRAF L597V)", "conditions": "100.00 nM", "scale": "reference: DMSO", "quantity": "fractional effect", "result": 0.642}
{"Compound": "COC(=O)[C@]12CCC(C)(C)C[C@H]1[C@H]1C(=O)C=C3[C@@]4(C)C=C(C#N)C(=O)C(C)(C)[C@@H]4CC[C@@]3(C)[C@]1(C)CC2", "target or system": "BT-12", "assay": "cell viability, MTT", "conditions": "10 µM, 72 h", "quantity": "inhibition", "result": "94%"}
{"Compound": "c1ccc2c(Cc3c[nH]c4ccccc34)c[nH]c2c1", "target or system": "HBL-1", "conditions": "0.1 µM, 120 h", "quantity": "viability", "result": "129%"}
{"Compound": "Cn1cc(-c2ccc(-c3cncc(Cl)c3N3CCC4(CCNC4=O)CC3)cc2)cn1", "target or system": "COLO 205", "assay": "gene expression, microarray, item: IL32 mRNA", "conditions": "concentration not given, 2 h", "scale": "reference: untreated cells", "quantity": "log2 fold change", "result": 2.13}
{"Compound": "CC1(C)CN(CCCCC(=O)N[C@@H](CCCCNC(=O)CCCCCCC(=O)NCCCC[C@H](NC(=O)N[C@@H](CCC(=O)O)C(=O)O)C(=O)O)C(=O)O)CC[N]2CC(C)(C)[S][Tc]2(=[O])[S]1 (stereo partly shown) [technetium-99m labelled]", "target or system": "LNCaP", "conditions": "25 nM, 1 h, 37 °C", "quantity": "surface-bound activity", "result": "3 ± 1.38 %AD/mg protein"}
{"Compound": "Cn1sc(=O)n(Cc2ccccc2)c1=O", "target or system": "HeLa expressing Ub(G76V)-GFP", "assay": "Ub(G76V)-GFP degradation, cycloheximide chase", "conditions": "12 µM", "quantity": "inhibition", "result": "98%"}
{"Compound": "CCn1cc(-c2cc(Cn3ccnc3)cc3c2CCN([C@H](c2cc(OC)ccn2)C2CC2)C3=O)c(C(F)(F)F)n1", "target or system": "EOL1", "assay": "cell growth, inhibitor", "conditions": "120 h", "quantity": "EC50", "result": "1.14 µM"}
{"Compound": "CCCCN1C[C@H](O)[C@@H](O)[C@@H](O)[C@H]1CO", "target or system": "sample H patient fibroblasts", "assay": "Gb3 level lowering, LC-MS/MS, item: Gb3 d18:1/16:0", "conditions": "216 h", "quantity": "IC50", "result": "12.4 µM"}
{"Compound": "CCCc1cc(C)[nH]c(=O)c1CNC(=O)c1cc(-c2ccnc(N3CCN(C)CC3)c2)cc2c1cnn2C(C)C", "target or system": "HBL-1", "conditions": "0.1 µM, 120 h", "quantity": "viability", "result": "111%"}
{"Compound": "Cc1ccccc1-c1ccc([C@H]2[C@H](CO)N3C(=O)CN(S(C)(=O)=O)C[C@@H]23)cc1", "target or system": "IDE", "assay": "enzyme activity, inhibitor, fluorogenic kinetic", "conditions": "together with: Mca-RPPGFSAFK(Dnp)-OH substrate", "quantity": "EC50", "result": "17.5 µM"}
{"Compound": "CC(C)C[C@@H](C=O)NC(=O)[C@H](CC(C)C)NC(=O)[C@H](CC(C)C)NC(=O)OCc1ccccc1", "target or system": "HeLa expressing Ub(G76V)-GFP", "assay": "Ub(G76V)-GFP degradation, cycloheximide chase", "conditions": "0.01 µM", "scale": "reference: DMSO", "quantity": "remaining activity", "result": "81%"}
{"Compound": "Clc1nc(NCc2ccco2)c2[nH]cnc2n1", "target or system": "iPSC-derived cardiomyocytes", "assay": "RNA-seq, item: chr2 exon ending 89580635", "conditions": "unit not given", "scale": "reference: DMSO minus compound", "quantity": "ΔPSI", "result": 0.211}
{"Compound": "COc1cc2nccc(Oc3ccc(NC(=O)C4(C(=O)Nc5ccc(F)cc5)CC4)cc3)c2cc1OC", "target or system": "A549 and H460 (LKB1-null)", "assay": "Western blot", "conditions": "concentration not given, 1 h", "quantity": "AMPK phosphorylation", "result": "no effect"}
{"Compound": "O=c1ncccn1[C@@H]1O[C@H](CO)[C@@H](O)[C@H]1O", "target or system": "HBL-1", "conditions": "0.5 µM, 120 h", "quantity": "viability", "result": "111%"}
{"Compound": "CCCN1CCN(c2ccc3[nH]c(-c4ccc5[nH]c(-c6ccc(C(F)(F)F)cc6)nc5c4)nc3c2)CC1", "target or system": "Hs-578T", "assay": "SRB", "conditions": "10 µM, 48 h", "quantity": "growth percent", "result": "4.6%"}
{"Compound": "CCCOc1nc(-c2cccc(O)c2)cc(-c2cc3cc(Cl)ccc3nc2N2CCOCC2)c1C#N", "target or system": "WI-38", "assay": "cell viability, MTT", "conditions": "72 h", "quantity": "EC50", "result": "0.061 ± 0.001 µM"}
{"Compound": "CCOC(=O)Nc1cc(-c2ccc(C)c(NS(C)(=O)=O)c2)nn2c(C)nnc12", "target or system": "HBL-1", "conditions": "0.5 µM, 120 h", "quantity": "viability", "result": "37.9%"}
{"Compound": "Cc1ccccc1-c1ccc([C@H]2[C@@H](CO)N3CCCCN(Cc4cccnc4)C[C@H]23)cc1", "target or system": "IDE", "assay": "enzyme activity, inhibitor, fluorogenic kinetic", "conditions": "together with: Mca-RPPGFSAFK(Dnp)-OH substrate", "quantity": "EC50", "result": "4.8 µM"}
{"Compound": "O=C1NC(=O)C(c2cn(CCCO)c3ncccc23)=C1c1cnccn1", "target or system": "HeLa expressing Ub(G76V)-GFP", "assay": "Ub(G76V)-GFP degradation, cycloheximide chase", "conditions": "12 µM", "quantity": "inhibition", "result": "-16%"}
{"Compound": "O=C(CCCCCCC(=O)NO)NO", "target or system": "HBL-1", "conditions": "0.1 µM, 120 h", "quantity": "viability", "result": "138%"}
{"Compound": "CCc1ccc(NC(=O)Nc2c[nH]c3ccccc23)cc1", "target or system": "THP1-Dual KI-hSTING-R232", "assay": "inhibitor", "scale": "reference: R232 over HAQ STING variant", "quantity": "potency ratio", "result": "8.2 fold"}
{"Compound": "CC1(C)CC[C@]2(C(=O)O)CC[C@]3(C)[C@H](C(=O)C=C4[C@@]5(C)C=C(C#N)C(=O)C(C)(C)[C@@H]5CC[C@]43C)[C@@H]2C1", "target or system": "SH-SY5Y Neh2-luc reporter", "conditions": "concentration not given, 3 h", "scale": "reference: background", "quantity": "reporter activation", "result": "> 20 fold"}
{"Compound": "NC(=O)[C@H](CCCN=C(N)CF)NC(=O)c1ccccc1", "target or system": "HBL-1", "conditions": "1 µM, 120 h", "quantity": "viability", "result": "110%"}
{"Compound": "CC(C)C[C@H](NC(=O)CNC(=O)c1cc(Cl)ccc1Cl)B1OC(=O)C(CC(=O)O)(CC(=O)O)O1", "target or system": "BT-12", "assay": "cell viability, MTT", "conditions": "10 µM, 72 h", "quantity": "inhibition", "result": "95.4%"}
{"note": "Excerpt of the above:"}
{"Compound": "O=C(CCCCCCC(=O)NO)NO", "target or system": "HBL-1", "conditions": "0.1 µM, 120 h", "quantity": "viability", "result": "138%"}
{"Compound": "CCc1ccc(NC(=O)Nc2c[nH]c3ccccc23)cc1", "target or system": "THP1-Dual KI-hSTING-R232", "assay": "inhibitor", "scale": "reference: R232 over HAQ STING variant", "quantity": "potency ratio", "result": "8.2 fold"}
{"Compound": "CC1(C)CC[C@]2(C(=O)O)CC[C@]3(C)[C@H](C(=O)C=C4[C@@]5(C)C=C(C#N)C(=O)C(C)(C)[C@@H]5CC[C@]43C)[C@@H]2C1", "target or system": "SH-SY5Y Neh2-luc reporter", "conditions": "concentration not given, 3 h", "scale": "reference: background", "quantity": "reporter activation", "result": "> 20 fold"}
